Results of several laboratories.
Protocols differ between the studies behind these lines. Several values in a cell are separate wells, animals, samples, runs or records. ± gives the spread as reported.

The kidney weight of `CC(C)[C@H](NC(=O)[C@@H](NC(=O)[C@H](CCCNC(=N)N)NC(=O)[C@H](CCCNC(=N)N)NC(=O)[C@H](CCCNC(=N)N)NC(=O)[C@H](CCC(N)=O)NC(=O)[C@H](CCCNC(=N)N)NC(=O)[C@H](CCCNC(=N)N)NC(=O)[C@H](CCCCN)NC(=O)[C@H](CCCCN)NC(=O)[C@H](CCCNC(=N)N)NC(=O)CN)[C@@H](C)O)C(=O)N[C@H](C(=O)N[C@@H](CO)C(=O)N1CCC[C@H]1C(=O)O)[C@@H](C)O` is reported as 0.224 ± 0.023 g (ICR mouse, female, right kidney; intranasal, 10 mg/kg daily, 4 weeks).
`CC[C@H](C)[C@H](NC(=O)[C@H](CCCCN)NC(=O)CNC(=O)[C@H](CC(C)C)NC(=O)[C@H](Cc1ccccc1)NC(=O)[C@H](CCCCN)NC(=O)[C@H](CO)NC(=O)[C@H](Cc1ccccc1)NC(=O)[C@H](Cc1c[nH]c2ccccc12)NC(=O)[C@H](CCC(N)=O)NC(=O)[C@@H](NC(=O)[C@H](Cc1ccccc1)NC(=O)CCCCCNC(=O)CN1CCN(CC(=O)O)CCN(CC(=O)O)CCN(CC(=O)O)CC1)C(C)C)C(=O)N[C@@H](CCC(=O)O)C(=O)N1CCC[C@H]1C(=O)N[C@@H](CC(=O)O)C(=O)N[C@H](C(=O)N[C@@H](CO)C(=O)N[C@@H](CCC(N)=O)C(=O)N[C@H](C(=O)N[C@@H](CCC(N)=O)C(=O)N[C@@H](CC(=O)O)C(=O)N1CCC[C@H]1C(=O)N[C@@H](CC(N)=O)C(=O)N[C@@H](CC(=O)O)C(=O)N[C@@H](CCC(N)=O)C(=O)N[C@@H](Cc1ccc(O)cc1)C(=O)N[C@@H](CCC(=O)O)C(=O)N1CCC[C@H]1C(=O)N[C@@H](Cc1ccccc1)C(=O)O)C(C)C)C(C)C` [copper-64 labelled] has a tissue uptake of 1.61 ± 0.2 %ID/g (C57BL/6 mice, male, tumour-free, blood; 4 h).
`CCCCCCCCCCCCCCCC(=O)N[C@@H](CCC(=O)NCCOCCOCCC(=O)NCCOCCOCCC(=O)NCCCC[C@H](NC(=O)[C@H](CC(=O)O)NC(=O)[C@H](CC(C)C)NC(=O)[C@H](Cc1ccc(O)cc1)NC(=O)[C@H](CCCCN)NC(=O)[C@H](CO)NC(=O)[C@H](Cc1ccc(O)cc1)NC(=O)[C@H](CC(=O)O)NC(=O)[C@H](CO)NC(=O)[C@@H](NC(=O)[C@H](Cc1ccccc1)NC(=O)[C@@H](NC(=O)CNC(=O)[C@H](CCC(N)=O)NC(=O)[C@@H](CO)NC(=O)[C@@H](N)Cc1c[nH]cn1)[C@@H](C)O)[C@@H](C)O)C(=O)N[C@@H](CCCNC(=N)N)C(=O)N[C@@H](CCCNC(=N)N)C(=O)N[C@@H](C)C(=O)N[C@@H](CCC(N)=O)C(=O)N[C@@H](CC(=O)O)C(=O)N[C@@H](Cc1ccccc1)C(=O)N[C@H](C(=O)N[C@@H](CCC(N)=O)C(=O)N[C@@H](Cc1c[nH]c2ccccc12)C(=O)N[C@@H](CC(C)C)C(=O)N[C@@H](CC(C)C)C(=O)N[C@@H](CC(N)=O)C(=O)N[C@H](C(=O)NCC(=O)NCC(=O)N1CCC[C@H]1C(=O)N[C@@H](CO)C(=O)N[C@@H](CO)C(=O)NCC(=O)N[C@@H](C)C(=O)N1CCC[C@H]1C(=O)N1CCC[C@H]1C(=O)N1CCC[C@H]1C(=O)N[C@@H](CO)C(N)=O)[C@@H](C)O)C(C)C)C(=O)O`: “serum enzyme activity” 111 ± 22.9 U/L (refers to: AST; Sprague-Dawley rat, male; subcutaneous, 20 µg/kg once daily, 14 days).
`C/C(=N\OCCCN1CCCCC1)c1ccc(C(F)(F)F)cc1` has a PR interval of 72 ms and 60 ms (rhesus monkey; dose not given, after dosing).
The tissue uptake of `C[C@H](O)[C@@H](NC(=O)[C@H]1CCCN1C(=O)[C@@H](CCCCN)NC(=O)[C@@H](CO)NC(=O)[C@@H](Cc1ccc(O)cc1)NC(=O)[C@@H](CC(N)=O)NC(=O)CCOCCOCCOCCNC(=O)CN1CCN(CC(=O)O)CCN(CC(=O)O)CCN(CC(=O)O)CC1)C(=O)N[C@H](CC(=O)O)C(=O)N[C@H](CCCNC(=N)N)C(=O)N[C@H](CCC(N)=O)C(=O)N[C@H](Cc1ccc(O)cc1)C(=O)N[C@H](Cc1c[nH]cn1)C(=O)N[C@H](Cc1ccccc1)C(N)=O` [copper-64 labelled] is reported as 0.49 ± 0.1 %ID/g (C57BL/6J mice, stomach; intravenous, 1.85 MBq, 1 h, radiolabelled).
For `N#[11C]c1ccc(-c2csc(NN=C3CCCC3)n2)cc1`, “uptake in blood” read 6.41 ± 0.33 %ID/g (C57BL/6 mouse, male; intravenous, 3 MBq, 5 min).
`CC(C)[C@@H]1NC(=O)CNC(=O)[C@H](CC(N)=O)NC(=O)[C@H](CCCNC(=N)N)NC(=O)[C@H](Cc2ccc(O)cc2)NC(=O)[C@H](C(C)C)NC(=O)[C@@H](NC(=O)[C@@H](NC(=O)[C@H](CC(N)=O)NC(=O)[C@H](Cc2c[nH]c3ccccc23)NC(=O)[C@H](C)NC(=O)[C@H](Cc2ccccc2)NC(=O)CNC(=O)[C@H](CCCCN)NC(=O)[C@H](Cc2ccccc2)NC(=O)[C@H](Cc2ccccc2)NC(=O)[C@H](CCCCN)NC(=O)OCC2c3ccccc3-c3ccccc32)C(C)C)CSSC[C@@H](C(=O)N[C@@H](Cc2c[nH]cn2)C(=O)N[C@@H](CCCNC(=N)N)C(=O)N[C@@H](CCCNC(=N)N)C(=O)N[C@@H](C)C(=O)N[C@@H](CC(N)=O)C(N)=O)NC(=O)[C@H](C(C)C)NC(=O)[C@H](CCCNC(=N)N)NC1=O` gave a peptide remaining of 36.9% and 38.7% and 43.8% (HPLC; trypsin buffer; 6.00 h, 37 °C, together with: trypsin 1 % w/v).
`CC[C@H](C)[C@H](NC(=O)[C@H](CCCCN)NC(=O)CNC(=O)[C@@H](NC(=O)[C@H](Cc1c[nH]cn1)NC(=O)[C@H](Cc1c[nH]cn1)NC(=O)[C@@H](NC(=O)CNC(=O)[C@H](Cc1c[nH]cn1)NC(=O)[C@H](Cc1ccccc1)NC(=O)[C@H](CC(C)C)NC(=O)[C@H](CC(C)C)NC(=O)[C@H](CCCNC(=N)N)NC(=O)[C@H](Cc1ccccc1)NC(=O)[C@@H](N)Cc1ccccc1)C(C)C)C(C)C)C(=O)N[C@@H](CCCCN)C(=O)N1CCC[C@H]1C(=O)N[C@@H](CCCNC(=N)N)C(=O)N[C@@H](C)C(N)=O`: “acute toxic concentration” 25 µM (zebrafish embryos 28 hpf, E3 medium; 1 h).
The survival of `N=C(N)NCCC[C@@H](NC(=O)[C@H](N)Cc1c[nH]c2ccccc12)C(=O)N[C@H](CCCCN)C(=O)N[C@H](Cc1c[nH]c2ccccc12)C(=O)N[C@H](CCCNC(=N)N)C(=O)N[C@H](CCCCN)C(=O)N[C@H](Cc1c[nH]c2ccccc12)C(=O)N[C@H](CCCNC(=N)N)C(=O)N[C@H](CCCCN)C(=O)N[C@H](Cc1c[nH]c2ccccc12)C(=O)N[C@H](CCCNC(=N)N)C(=O)N[C@H](CCCCN)C(N)=O` is reported as 100% (mouse; intraperitoneal, 30 mg/kg single dose, day 2).
`CC[C@H](C)[C@@H]1NC(=O)[C@H](Cc2ccc(O)cc2)NC(=O)CCCSC[C@@H](C(=O)N(CC(=O)N[C@@H](CC(C)C)C(=O)NCC(N)=O)Cc2ccc(F)cc2)NC(=O)[C@H](CC(N)=O)NC(=O)[C@H](CCC(N)=O)NC1=O` has a deaths of 0% (human; intranasal, 300 µg single dose).
For `CCCCCCCCCCCCCCCC(=O)NCCCC[C@H](NC(=O)[C@H](CCC(=O)O)NC(=O)[C@H](Cc1ccc(O)cc1)NC(=O)[C@H](CCC(=O)O)NC(=O)COCC(=O)NCCCOCCOCCOCCCNC(=O)[C@H](Cc1ccccc1)NC(=O)[C@H](CC(N)=O)NC(=O)[C@H](Cc1c[nH]cn1)NC(=O)[C@@H](NC(=O)[C@H](CC(=O)O)NC(=O)[C@H](CCC(N)=O)NC(=O)[C@H](CC(C)C)NC(=O)[C@H](CCCCN)NC(=O)[C@H](CCCCN)NC(=O)[C@H](CCCNC(=N)N)NC(=O)[C@H](CC(C)C)NC(=O)[C@H](Cc1c[nH]c2ccccc12)NC(=O)[C@H](CCC(=O)O)NC(=O)[C@@H](NC(=O)[C@H](CCCNC(=N)N)NC(=O)[C@H](CCC(=O)O)NC(=O)[C@H](CCSC)NC(=O)[C@H](CO)NC(=O)[C@H](CC(N)=O)NC(=O)[C@H](CC(C)C)NC(=O)[C@H](Cc1c[nH]cn1)NC(=O)[C@H](CCCCN)NC(=O)CNC(=O)[C@H](CC(C)C)NC(=O)[C@H](CC(N)=O)NC(=O)[C@H](Cc1c[nH]cn1)NC(=O)[C@H](CCSC)NC(=O)[C@H](CC(C)C)NC(=O)[C@H](CCC(N)=O)NC(=O)[C@@H](NC(=O)[C@H](CCC(=O)O)NC(=O)[C@H](CO)NC(=O)[C@@H](NC(=O)[C@@H](N)CO)C(C)C)[C@@H](C)CC)C(C)C)C(C)C)C(=O)N[C@@H](CCC(=O)O)C(=O)N[C@@H](Cc1ccc(O)cc1)C(=O)N[C@@H](CCC(=O)O)C(N)=O`, the Tmax was 1.8 min (female CD-1 mouse, serum; intravenous, 10 nmol/kg).
With `CCCC[C@H]1C(=O)N(C)[C@@H](CCCC)C(=O)N[C@@H](CCCNC(=O)CN2CCN(CC(=O)O)CCN(CC(=O)O)CCN(CC(=O)O)CC2)C(=O)N[C@H](C(=O)NCC(N)=O)CSCC(=O)N[C@@H](Cc2ccc(O)cc2)C(=O)N(C)[C@@H](C)C(=O)N[C@@H](CC(N)=O)C(=O)N2CCC[C@H]2C(=O)N[C@@H](Cc2c[nH]cn2)C(=O)N[C@@H](CC(C)C)C(=O)N(C)CC(=O)N[C@@H](Cc2c[nH]c3ccccc23)C(=O)N[C@@H](CO)C(=O)N[C@@H](Cc2c[nH]c3ccccc23)C(=O)N1C` [gallium-68 labelled] the tissue-to-tissue ratio was 3.47 ± 1.02 (NOD/SCID mice, CHO-hPD-L1 xenograft, tumour over muscle; iv, dose not given, 10 min; reference: tumour over muscle).
For `CSCC[C@H](NC(=O)[C@@H](NC(=O)[C@H](CC(C)C)NC(=O)[C@@H](NC(=O)[C@H](Cc1c[nH]cn1)NC(=O)CCCCCNC(=O)[C@H](CCCNC(=N)N)NC(=O)[C@H](CCCNC(=N)N)NC(=O)[C@H](CCCNC(=N)N)NC(=O)[C@H](CCC(N)=O)NC(=O)[C@H](CCCNC(=N)N)NC(=O)[C@H](CCCNC(=N)N)NC(=O)[C@H](CCCCN)NC(=O)[C@H](CCCCN)NC(=O)[C@H](CCCNC(=N)N)NC(=O)CNC(=O)[C@@H](N)Cc1ccc(O)cc1)C(C)C)C(C)C)C(=O)N[C@@H](CS)C(=O)N[C@@H](C)C(=O)N[C@H](C(N)=O)[C@@H](C)O`, the Eos was 3% and 0% and 2% (C57BL/6J mice; Alzet osmotic pump, 3 mg/kg, 8 weeks; reference: leukocytes).
For `O=C1NC2(CC2)COc2ncc(F)cc2[C@H]2COCCN2c2ccn3ncc1c3n2`, “organ-to-brain weight ratio” read 635 ± 72.5% (Sprague-Dawley rat, male, liver; oral, 5 mg/kg/day, 4 weeks, end of treatment).
`CC(C)(CCCC/C=C/CCCCCC(C)(C)C(=O)O)C(=O)O` gave a plasma concentration of 3800 ng/mL (ICR mice, both sexes; oral, dose not given, 10 h).
With `CN1Cc2cc(Cl)ccc2-n2c(nnc2C2CCN(c3cccc([18F])n3)CC2)C1` the tissue uptake was 19.9 ± 0.62 %ID/g (C57BL/6 mouse male, liver; intravenous, 3.7 MBq, 30 min).
`COc1cc2c(cc1O)C(CCc1ccc(Cl)cc1)N([11CH3])CC2` (centres unmarked) — result for “peak brain radioactivity”: 0.9 %ID/mL (PET; Sprague-Dawley rat, male, brain; intravenous, 1 mg/kg, carrier added).

Repeated from above:
With `CCCC[C@H]1C(=O)N(C)[C@@H](CCCC)C(=O)N[C@@H](CCCNC(=O)CN2CCN(CC(=O)O)CCN(CC(=O)O)CCN(CC(=O)O)CC2)C(=O)N[C@H](C(=O)NCC(N)=O)CSCC(=O)N[C@@H](Cc2ccc(O)cc2)C(=O)N(C)[C@@H](C)C(=O)N[C@@H](CC(N)=O)C(=O)N2CCC[C@H]2C(=O)N[C@@H](Cc2c[nH]cn2)C(=O)N[C@@H](CC(C)C)C(=O)N(C)CC(=O)N[C@@H](Cc2c[nH]c3ccccc23)C(=O)N[C@@H](CO)C(=O)N[C@@H](Cc2c[nH]c3ccccc23)C(=O)N1C` [gallium-68 labelled] the tissue-to-tissue ratio was 3.47 ± 1.02 (NOD/SCID mice, CHO-hPD-L1 xenograft, tumour over muscle; iv, dose not given, 10 min; reference: tumour over muscle).
For `CSCC[C@H](NC(=O)[C@@H](NC(=O)[C@H](CC(C)C)NC(=O)[C@@H](NC(=O)[C@H](Cc1c[nH]cn1)NC(=O)CCCCCNC(=O)[C@H](CCCNC(=N)N)NC(=O)[C@H](CCCNC(=N)N)NC(=O)[C@H](CCCNC(=N)N)NC(=O)[C@H](CCC(N)=O)NC(=O)[C@H](CCCNC(=N)N)NC(=O)[C@H](CCCNC(=N)N)NC(=O)[C@H](CCCCN)NC(=O)[C@H](CCCCN)NC(=O)[C@H](CCCNC(=N)N)NC(=O)CNC(=O)[C@@H](N)Cc1ccc(O)cc1)C(C)C)C(C)C)C(=O)N[C@@H](CS)C(=O)N[C@@H](C)C(=O)N[C@H](C(N)=O)[C@@H](C)O`, the Eos was 3% and 0% and 2% (C57BL/6J mice; Alzet osmotic pump, 3 mg/kg, 8 weeks; reference: leukocytes).
For `O=C1NC2(CC2)COc2ncc(F)cc2[C@H]2COCCN2c2ccn3ncc1c3n2`, “organ-to-brain weight ratio” read 635 ± 72.5% (Sprague-Dawley rat, male, liver; oral, 5 mg/kg/day, 4 weeks, end of treatment).
